Measured values pooled from the literature.
Compare with care: the assays were run in different laboratories. Several values in a cell are separate wells, animals, samples, runs or records. ± marks the error that the study gave.
PTGS1: Prostaglandin G/H synthase 1 (PTGS1, Ovis aries, UniProt P05979)
UniProt P05979, sequence (whole entry, looked up): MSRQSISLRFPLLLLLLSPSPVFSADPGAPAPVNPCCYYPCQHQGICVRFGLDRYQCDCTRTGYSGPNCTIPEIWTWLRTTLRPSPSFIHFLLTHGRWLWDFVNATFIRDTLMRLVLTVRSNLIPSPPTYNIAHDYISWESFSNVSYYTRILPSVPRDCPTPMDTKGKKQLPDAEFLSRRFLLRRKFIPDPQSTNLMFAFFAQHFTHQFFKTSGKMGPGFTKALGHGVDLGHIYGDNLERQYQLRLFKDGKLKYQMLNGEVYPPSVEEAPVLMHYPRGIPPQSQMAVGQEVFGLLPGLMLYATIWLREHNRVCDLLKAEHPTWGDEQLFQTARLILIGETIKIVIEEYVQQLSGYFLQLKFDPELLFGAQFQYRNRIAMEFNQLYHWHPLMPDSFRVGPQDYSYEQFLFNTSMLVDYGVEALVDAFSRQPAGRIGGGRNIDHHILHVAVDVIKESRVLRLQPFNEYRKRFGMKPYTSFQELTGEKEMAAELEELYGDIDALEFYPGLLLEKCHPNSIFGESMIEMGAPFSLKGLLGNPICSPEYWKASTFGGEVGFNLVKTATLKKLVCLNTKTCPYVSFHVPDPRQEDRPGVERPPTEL
CPL: CPL (Toxoplasma gondii, UniProt Q6DMN0)
UniProt P08908, sequence (whole entry, looked up): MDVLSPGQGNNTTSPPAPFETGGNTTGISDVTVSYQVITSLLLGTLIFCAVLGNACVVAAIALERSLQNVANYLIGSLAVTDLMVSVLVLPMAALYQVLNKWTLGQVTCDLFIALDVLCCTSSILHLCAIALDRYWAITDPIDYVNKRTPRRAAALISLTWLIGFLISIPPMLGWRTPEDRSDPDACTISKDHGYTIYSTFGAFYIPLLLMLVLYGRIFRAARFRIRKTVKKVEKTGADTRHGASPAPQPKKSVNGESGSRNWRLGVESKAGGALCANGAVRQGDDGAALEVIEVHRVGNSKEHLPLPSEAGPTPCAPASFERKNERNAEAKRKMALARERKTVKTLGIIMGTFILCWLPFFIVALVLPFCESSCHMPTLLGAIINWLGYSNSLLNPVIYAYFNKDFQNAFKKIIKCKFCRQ
UniProt P78325, sequence (whole entry, looked up): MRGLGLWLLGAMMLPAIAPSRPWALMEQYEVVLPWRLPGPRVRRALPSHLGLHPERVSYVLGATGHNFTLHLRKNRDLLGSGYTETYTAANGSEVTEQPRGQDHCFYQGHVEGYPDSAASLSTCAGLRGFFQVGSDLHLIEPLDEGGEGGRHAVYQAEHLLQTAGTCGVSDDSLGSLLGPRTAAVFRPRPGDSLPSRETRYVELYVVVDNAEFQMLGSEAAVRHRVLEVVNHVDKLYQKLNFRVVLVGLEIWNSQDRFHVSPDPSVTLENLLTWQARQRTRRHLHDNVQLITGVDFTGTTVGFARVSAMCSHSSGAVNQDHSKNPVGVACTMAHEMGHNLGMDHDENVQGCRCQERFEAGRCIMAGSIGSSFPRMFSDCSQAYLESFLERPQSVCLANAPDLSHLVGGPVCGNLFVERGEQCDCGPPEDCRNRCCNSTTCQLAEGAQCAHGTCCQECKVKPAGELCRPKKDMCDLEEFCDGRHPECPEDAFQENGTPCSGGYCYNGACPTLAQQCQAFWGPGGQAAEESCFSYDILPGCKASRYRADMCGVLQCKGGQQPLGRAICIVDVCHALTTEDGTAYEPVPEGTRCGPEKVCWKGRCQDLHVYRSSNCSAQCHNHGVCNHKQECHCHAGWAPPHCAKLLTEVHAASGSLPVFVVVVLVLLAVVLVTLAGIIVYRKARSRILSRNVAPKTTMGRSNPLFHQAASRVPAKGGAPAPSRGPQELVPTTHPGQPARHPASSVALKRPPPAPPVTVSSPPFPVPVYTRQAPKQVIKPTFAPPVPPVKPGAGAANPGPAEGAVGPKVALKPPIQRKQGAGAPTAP
UniProt Q68T42, sequence (whole entry, looked up): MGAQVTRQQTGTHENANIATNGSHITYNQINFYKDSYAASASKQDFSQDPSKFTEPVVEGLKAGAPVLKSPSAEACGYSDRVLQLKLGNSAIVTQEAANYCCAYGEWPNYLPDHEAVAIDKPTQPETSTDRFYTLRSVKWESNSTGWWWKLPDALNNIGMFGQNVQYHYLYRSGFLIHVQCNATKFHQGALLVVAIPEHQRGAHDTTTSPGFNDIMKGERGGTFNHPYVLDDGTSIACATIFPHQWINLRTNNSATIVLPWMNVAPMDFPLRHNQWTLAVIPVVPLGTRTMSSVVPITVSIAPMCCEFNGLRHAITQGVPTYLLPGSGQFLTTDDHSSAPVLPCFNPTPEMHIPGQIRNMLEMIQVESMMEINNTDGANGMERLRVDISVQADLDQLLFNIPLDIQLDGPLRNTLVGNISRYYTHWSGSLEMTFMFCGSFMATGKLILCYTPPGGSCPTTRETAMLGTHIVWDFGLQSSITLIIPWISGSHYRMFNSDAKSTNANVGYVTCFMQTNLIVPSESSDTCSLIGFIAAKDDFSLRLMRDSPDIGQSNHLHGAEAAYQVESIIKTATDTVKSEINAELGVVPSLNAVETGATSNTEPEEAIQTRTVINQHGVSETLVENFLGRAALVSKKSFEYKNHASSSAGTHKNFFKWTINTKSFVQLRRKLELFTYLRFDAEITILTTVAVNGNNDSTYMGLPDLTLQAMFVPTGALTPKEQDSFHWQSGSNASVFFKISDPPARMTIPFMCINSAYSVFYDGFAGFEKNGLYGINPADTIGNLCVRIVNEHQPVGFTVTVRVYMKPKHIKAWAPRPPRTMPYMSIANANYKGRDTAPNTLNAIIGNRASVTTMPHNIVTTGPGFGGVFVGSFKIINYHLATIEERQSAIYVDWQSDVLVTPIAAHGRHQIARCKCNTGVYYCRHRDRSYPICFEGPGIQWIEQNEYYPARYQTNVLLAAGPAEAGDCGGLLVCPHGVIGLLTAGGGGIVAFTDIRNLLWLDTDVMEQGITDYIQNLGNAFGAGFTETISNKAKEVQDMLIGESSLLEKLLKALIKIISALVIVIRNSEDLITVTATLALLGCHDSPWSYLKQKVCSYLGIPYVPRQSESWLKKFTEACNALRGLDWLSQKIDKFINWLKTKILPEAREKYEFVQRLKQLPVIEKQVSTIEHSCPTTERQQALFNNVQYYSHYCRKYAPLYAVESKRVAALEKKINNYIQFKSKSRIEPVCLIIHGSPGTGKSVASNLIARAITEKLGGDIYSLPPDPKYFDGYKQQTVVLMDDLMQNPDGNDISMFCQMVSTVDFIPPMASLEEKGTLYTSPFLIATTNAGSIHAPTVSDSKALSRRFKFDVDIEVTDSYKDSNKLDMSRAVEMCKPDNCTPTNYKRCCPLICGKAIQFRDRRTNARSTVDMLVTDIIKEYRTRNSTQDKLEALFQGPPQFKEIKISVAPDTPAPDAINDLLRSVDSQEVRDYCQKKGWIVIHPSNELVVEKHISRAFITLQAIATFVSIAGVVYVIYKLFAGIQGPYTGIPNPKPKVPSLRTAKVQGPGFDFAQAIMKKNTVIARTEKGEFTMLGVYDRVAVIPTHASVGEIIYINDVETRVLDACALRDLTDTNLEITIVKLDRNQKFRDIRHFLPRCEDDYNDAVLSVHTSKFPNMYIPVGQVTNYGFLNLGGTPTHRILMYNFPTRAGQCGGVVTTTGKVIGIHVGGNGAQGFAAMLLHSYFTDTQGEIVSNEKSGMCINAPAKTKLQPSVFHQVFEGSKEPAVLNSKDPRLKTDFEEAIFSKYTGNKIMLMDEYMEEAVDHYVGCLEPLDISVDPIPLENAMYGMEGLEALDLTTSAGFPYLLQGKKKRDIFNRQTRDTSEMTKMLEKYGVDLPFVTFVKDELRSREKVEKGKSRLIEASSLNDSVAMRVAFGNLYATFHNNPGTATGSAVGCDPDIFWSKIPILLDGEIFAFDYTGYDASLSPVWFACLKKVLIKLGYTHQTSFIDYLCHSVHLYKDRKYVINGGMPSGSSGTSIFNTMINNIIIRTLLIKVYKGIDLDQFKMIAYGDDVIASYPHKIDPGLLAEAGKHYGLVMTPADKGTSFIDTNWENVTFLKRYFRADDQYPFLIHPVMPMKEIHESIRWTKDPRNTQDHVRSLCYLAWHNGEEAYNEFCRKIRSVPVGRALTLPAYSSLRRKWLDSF
UniProt P49841, sequence (whole entry, looked up): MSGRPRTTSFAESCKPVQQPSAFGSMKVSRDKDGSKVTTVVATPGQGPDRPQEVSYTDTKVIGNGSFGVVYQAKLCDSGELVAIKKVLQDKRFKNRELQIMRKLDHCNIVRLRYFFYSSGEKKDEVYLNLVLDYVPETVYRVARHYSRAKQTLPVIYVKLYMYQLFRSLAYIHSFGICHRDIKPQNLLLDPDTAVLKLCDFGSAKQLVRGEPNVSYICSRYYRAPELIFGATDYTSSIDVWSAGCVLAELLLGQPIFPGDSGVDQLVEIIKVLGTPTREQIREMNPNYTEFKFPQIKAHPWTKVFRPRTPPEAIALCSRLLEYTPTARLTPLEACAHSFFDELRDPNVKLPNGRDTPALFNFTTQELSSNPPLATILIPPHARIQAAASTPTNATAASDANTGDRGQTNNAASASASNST
UniProt P32247, sequence (whole entry, looked up): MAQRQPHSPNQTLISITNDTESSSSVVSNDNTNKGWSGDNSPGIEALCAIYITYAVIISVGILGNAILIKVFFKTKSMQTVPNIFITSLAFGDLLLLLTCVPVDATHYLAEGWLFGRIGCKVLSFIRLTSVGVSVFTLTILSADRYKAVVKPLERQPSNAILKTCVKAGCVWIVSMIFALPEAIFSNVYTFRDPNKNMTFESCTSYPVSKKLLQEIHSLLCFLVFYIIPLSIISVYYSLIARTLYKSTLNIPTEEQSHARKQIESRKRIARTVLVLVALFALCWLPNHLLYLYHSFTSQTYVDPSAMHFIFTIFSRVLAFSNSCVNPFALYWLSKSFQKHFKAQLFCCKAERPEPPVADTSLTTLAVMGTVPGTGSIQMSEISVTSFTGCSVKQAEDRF
UniProt P62937, sequence (whole entry, looked up): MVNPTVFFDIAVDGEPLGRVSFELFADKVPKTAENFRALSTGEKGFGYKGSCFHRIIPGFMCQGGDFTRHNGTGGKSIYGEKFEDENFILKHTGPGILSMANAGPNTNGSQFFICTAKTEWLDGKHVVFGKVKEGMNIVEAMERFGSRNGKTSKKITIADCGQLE

| Structure (SMILES) | target | assay | system | setting | IC50 |
| --- | --- | --- | --- | --- | --- |
| N=C(N)NCCC[C@@H](NC(=O)[C@@H](CCCNC(=N)N)NC(=O)[C@@H](CCCNC(=N)N)NC(=O)[C@@H](CCCNC(=N)N)NC(=O)[C@@H](CCCNC(=N)N)NC(=O)[C@@H](CCCNC(=N)N)NC(=O)CCCCCNC(=O)[C@@H](CCCCN)NC(=O)CCCCCNC(=O)[C@H]1O[C@@H](n2cnc3c(N)ncnc32)[C@H](O)[C@@H]1O)C(N)=O | cGMP-dependent protein kinase 1, isoform alpha (PRKG1, Homo sapiens, UniProt Q13976) | – | – | – | 0.468 µM |
| Cc1ccc(C(=O)/C=C/c2ccc(N(C)CCO)cc2)o1 | PTGS1 | enzyme activity, inhibitor, ELISA | – | – | < 25 µM and 25.9 µM |
| CC(C)=CCCC(C)=CCCC(C)=CCc1c(O)cc(O)c(CC=C(C)C)c1-c1cc2ccc(O)cc2o1 | Glycogen synthase kinase-3 beta (GSK3B, Homo sapiens, UniProt P49841) | enzyme activity, inhibitor | – | – | 7.57 µM |
| COc1ccc(S(=O)(=O)N2CCN(c3nc4ccc(Cl)cc4o3)CC[C@H]2C)cc1 | Orexin receptor type 2 (HCRTR2, Homo sapiens, UniProt O43614) | calcium signal, antagonist, fluorescence | – | – | 5.11 µM |
| N#Cc1cn([C@@H]2O[C@H](CSCC[C@H](N)C(=O)O)[C@@H](O)[C@H]2O)c2ncnc(N)c12 | Protein arginine N-methyltransferase 3 (PRMT3, Homo sapiens, UniProt O60678) | enzyme activity, inhibitor, radiometric | – | – | 2 µM |
| CCCCCCCCCC1N=C(N)N=C(N)N1c1ccccc1C (racemic) | Dihydrofolate reductase (folA, Escherichia coli, UniProt P0ABQ4) | enzyme activity, inhibitor | – | – | 7 µM |
| C[C@@H]1Oc2c(c(=O)oc3c2ccc2ccccc23)[C@@H]1C | Tyrosine-protein kinase SYK (SYK, Homo sapiens, UniProt P43405) | enzyme activity, inhibitor, ADP detection | – | – | 51 µM |
| CC(C)C[C@H](NC(=O)[C@H](Cc1ccc(O)cc1)NC(=O)[C@@H](CCCNC(=N)N)NC(=O)[C@@H](CO)NC(=O)[C@H](Cc1ccccc1)NC(=O)[C@H](CC1CCCCC1)NC(=O)[C@H](CC(=O)O)NC(=O)CCC(C(=O)O)N1CCCN2CCN(CCCN(CC(=O)O)CC2)CC1)C(=O)N[C@@H](Cc1c[nH]c2ccccc12)C(=O)N[C@@H](CO)C(=O)O (stereo partly shown) | Urokinase plasminogen activator surface receptor (Homo sapiens, UniProt Q03405) | binding to pro-uPA, inhibitor, surface plasmon resonance | – | added: uPAR 0.5 nM | 0.0061 ± 0.001 µM |
| COc1cccc(/C=C/C(=O)C(c2ccccc2)c2ccccc2)c1OC | PTGS1 | enzyme activity, inhibitor, ELISA | – | – | 14.6 µM and < 25 µM |
| CC(=O)c1cc2ccccc2oc1=Nc1nccs1 | PTGS1 | enzyme activity, inhibitor, ELISA | – | – | 1 µM |
| C/C=C1/CN2CCc3c([nH]c4ccccc34)[C@@H]2C[C@@H]1/C(=C\OC)C(=O)OC | 5-hydroxytryptamine receptor 1A (HTR1A, Homo sapiens, UniProt P08908) | ligand displacement, radioligand | – | cell membranes | 0.904 µM |
| CC(=O)CCC1C(=O)NC(C(C)C)C(=O)NC(Cc2cccc(O)c2)C(=O)N2CCCC(N2)C(=O)OC(C(C)=CC=CC(=O)N2CCCCO2)CC=CC=CC(O)C(C)C1O (stereo not shown) | Peptidyl-prolyl cis-trans isomerase A, with HCV NS5A (PPIA, Homo sapiens, UniProt P62937) | inhibitor | – | – | 0.36 ± 0.03 µM |
| CCC(C)SSc1ncc[nH]1 (stereo not shown) | genome polyprotein, 3C protease (Enterovirus D68, UniProt A0A097BW19) | enzyme activity, inhibitor | – | no DTT | 1.2 ± 0.2 µM |
| Clc1ccc(C(c2ccc(Cl)cc2)C(Cl)(Cl)Cl)cc1 | ATP-dependent translocase ABCB1 (Abcb1a, Mus musculus, UniProt P21447, N83Q/N87Q/N90Q) | ATPase activity, inhibitor | purified recombinant protein | 5 min, pH 7.5, added: verapamil 100 µM | 25.6 µM |
| O=C(CCCCCCC(=O)Nc1ccc(N=Nc2ccccc2)cc1)NO | Protein deacetylase HDAC6 (HDAC6, Homo sapiens, UniProt Q9UBN7) | enzyme activity, inhibitor | – | trans isomer | 0.01 ± 0.002 µM |
| CC(C)C[C@@H]1NC(=O)[C@H](CCCNC(=N)N)NC(=O)[C@H](C)NC(=O)[C@H](CC(=O)O)NC(=O)[C@H](CCCCN)NC(=O)[C@@H](CO)NC1=O | Disintegrin and metalloproteinase domain-containing protein 8 (Homo sapiens, UniProt P78325) | CD23 shedding, inhibitor, ELISA | COS-7, co-transfected with CD23 | – | 0.255 ± 0.027 µM |
| O=C[C@H](C[C@H]1CCNC1=O)NC(=O)[C@H](CC1CCCCC1)NC(=O)OCc1ccccc1 | Genome polyprotein, 3C protease (Human enterovirus D68, UniProt Q68T42) | 3C protease activity, inhibitor, FRET | – | – | 0.083 ± 0.01 µM |
| COC(=O)C1CN1S(=O)(=O)c1ccc(C)cc1 (stereo not shown) | Protein disulfide-isomerase (P4HB, Homo sapiens, UniProt P07237) | enzyme activity, inhibitor, absorbance | – | pH 7.6 | 5.3 µM |
| CCCCCCc1ccc(Nc2ccccc2C(=O)O)cc1 | Androgen receptor (AR, Homo sapiens, UniProt P10275) | reporter gene, antagonist, MMTV-Luc reporter | MDA-kb2 | 20 h, added: 8 nM DHT (EC90) | 77.2 ± 17.7 µM |
| CSCC[C@H](NC(=O)[C@H](Cc1ccccc1)NC(=O)[C@H](Cc1c[nH]cn1)NC(=O)CNC(=O)[C@@H](NC(=O)[C@H](C)NC(=O)[C@H](Cc1c[nH]c2ccccc12)NC(=O)[C@H](CCC(N)=O)NC(=O)[C@@H]1CCC(=O)N1)C(C)C)C(N)=O | Bombesin receptor subtype-3 (BRS3, Homo sapiens, UniProt P32247) | human GRPR activity, cell-based | – | – | > 3 µM |
| Fc1ncc(C2CC3CCC2N3)cc1-c1ccnc(Cl)c1 (racemic) | Neuronal acetylcholine receptor subunit alpha-7 (Chrna7, Rattus norvegicus, UniProt Q05941) | ion current, two-electrode voltage clamp | – | oocytes | 56 µM |
| CC(C)C[C@H](NC(=O)[C@H](CCCCN)NC(=O)[C@H](CC(C)C)NC(=O)[C@]1(C)CCCC=CCCC[C@](C)(N)C(=O)N[C@@H](C)C(=O)N[C@@H](Cc2ccc(O)cc2)C(=O)N[C@@H](Cc2ccccc2)C(=O)N1)C(=O)N[C@@H](C)C(=O)NCC(=O)N[C@@H](CCCNC(=N)N)C(=O)N[C@@H](Cc1c[nH]c2ccccc12)C(N)=O | PC4 and SFRS1-interacting protein, with HIV integrase (Homo sapiens, UniProt O75475) | LEDGF/p75-integrase interaction, inhibitor | – | – | > 100 µM |
| Cc1cccc2c1NC(=O)C2=Cc1ccc(-c2cccc(C(=O)N3CCCN(C)CC3)c2)o1 (mixture of isomers) | Serine/threonine-protein kinase pim-2 (PIM2, Homo sapiens, UniProt Q9P1W9) | enzyme activity, inhibitor | – | – | 5 µM |
| Cc1cccc(C(c2c[nH]c3ccccc23)C(C#N)C#N)c1 (stereo not shown) | Cocaine esterase (CES2, Homo sapiens, UniProt O00748) | enzyme activity, inhibitor | human liver microsomes | pH 7.4, 37 °C, added: fluorescein diacetate | 9.01 ± 2.49 µM |
| N#Cc1nc(N2CCOCC2)nc(N(Cc2ccc(F)cc2)CC2CCCC2)n1 | CPL | enzyme activity, inhibitor, Z-L-R-AMC hydrolysis fluorescence | – | – | 0.074 µM |
| CC(C)[C@H]1NC(=O)[C@H](CO)NC(=O)c2cc3cc(c2)C(=O)NC[C@H](NC(=O)[C@H](Cc2c[nH]cn2)NC(=O)[C@H](Cc2ccc(C(F)(F)P(=O)(O)O)cc2)NC(=O)[C@@H]2CCCN2C1=O)C(=O)N[C@@H](Cc1ccccc1)C(=O)N[C@@H](Cc1ccc2ccccc2c1)C(=O)N[C@@H](CCCNC(=N)N)C(=O)N[C@@H](CCCNC(=N)N)C(=O)N[C@@H](CCCNC(=N)N)C(=O)N[C@@H](CCCNC(=N)N)C(=O)N[C@H](C(=O)N[C@@H](CCCCN)C(N)=O)CNC3=O | Tyrosine-protein phosphatase non-receptor type 2 (PTPN2, Homo sapiens, UniProt P17706) | enzyme activity, inhibitor, absorbance | – | – | 0.5 µM |
| N#Cc1nc(N2CCOCC2)nc(N(Cc2ccc(F)cc2)CC2CCCNC2)n1 (stereo not shown) | CPL | enzyme activity, inhibitor | – | added: Z-L-R-AMC | 0.18 µM |
| CN(C)c1ccc(C(=O)NCc2ccc(CNC(=O)CS)cc2)cc1 | Histone deacetylase 8 (HDAC8, Homo sapiens, UniProt Q9BY41) | enzyme activity, inhibitor | – | – | 16.7 µM |
